Results collected from several papers.
Compare with care: the assays were run in different laboratories. Several values in a cell are separate wells, animals, samples, runs or records. Numbers after ± are the reported error.

| SMILES | assay | system | setting | Cmax |
| --- | --- | --- | --- | --- |
| Cn1ncnc1[C@H]1c2n[nH]c(=O)c3cc(F)cc(c23)N[C@@H]1c1ccc(F)cc1 |  | human patients, plasma | oral, 600 µg/m2 twice daily day 1, day 5, dose level DL4, median, with: temozolomide 30 mg/m2 daily days 2-6 | 17.8 ng/mL |
| [H]/N=C(/N)c1ccc(NCc2nc3cc(C(=O)N(CCC(=O)O)c4ccccn4)ccc3n2C)cc1 |  | healthy human subjects, plasma, total | oral, 150 mg, dabigatran etexilate alone, geometric mean | 123 ng/mL |
| Cn1cc(-c2ccc(S(=O)(=O)[C@@H]3C[C@@H](C(=O)NC4(C#N)CC4)N(C(=O)C4(C(F)(F)F)CC4)C3)c(C(F)(F)F)c2)cn1 | noncompartmental analysis | human, plasma | oral, 200 mg, day 1, with food, geometric mean | 1380 ng/mL |
| CN(C)N=Nc1[nH]cnc1C(N)=O |  | human patients, plasma | intravenous, 1000 mg/m^2 over 1 h, cycle 2 day 1, staggered with twice-weekly co-drug | 32900 ng/mL |
| Cc1cn(C(=O)c2c(-c3c(Cl)cc(Cl)cc3Cl)noc2C(C)(C)F)c2cccc(/C=C/C(=O)O)c12 |  | human patients | 125 mg bid, cycle 1 day 1 | 5620 ng/mL |
| CC(C)(C(=O)N1CCOc2c(C#N)cncc2C1)C(F)F |  | humans, both sexes, fasted, plasma | oral, 20 mg single dose, geometric mean | 241 ng/mL |
| NC1(C(=O)N[C@@H](CCO)c2ccc(Cl)cc2)CCN(c2ncnc3[nH]ccc23)CC1 |  | human, plasma | 640 mg twice daily, day 2, 2 days on, 5 days off | 2480 ng/mL |
| CC(C)c1nc(N(C)S(C)(=O)=O)nc(-c2ccc(F)cc2)c1/C=C/[C@@H](O)C[C@@H](O)CC(=O)O |  | human, plasma | oral, 20 mg, day 2, mean, alone | 6.09 ng/mL |
| CCN1CCN(Cc2ccc(Nc3ncc(F)c(-c4cc(F)c5nc(C)n(C(C)C)c5c4)n3)nc2)CC1 |  | healthy human, fasted | oral, 150 mg, 3 x 50 mg tablets | 97.7 ng/mL |
| C=CC(=O)N(C)CCOc1c(N)ncnc1-c1cc(F)cc(NC(=O)c2ccc(C3CC3)cc2F)c1C |  | human, whole blood | oral, 5 mg, single ascending dose, fasted | 5.86 ng/mL |
| COc1ccnc(C[S+]([O-])c2nc3ccc(OC(F)F)cc3[nH]2)c1OC (stereo not drawn) |  | human, plasma | intravenous, dose not given, median | 3700 ng/mL |
| CC(C)(Sc1ccncc1-c1ccc(C#N)c2ccccc12)C(=O)O |  | human, plasma | oral, 2.5 mg once daily, with: febuxostat 20 mg | 6.64 ng/mL |
| Cn1c(=O)oc2ccc(-c3ccc(C[C@@H](C#N)NC(=O)[C@@H]4CNCCCO4)cc3)cc21 |  | human, normal renal function, plasma | oral, 25 mg single dose, mean, fasted | 168 ng/mL |
| Cn1cncc1[C@@](N)(c1ccc(Cl)cc1)c1ccc2c(c1)c(-c1cccc(Cl)c1)cc(=O)n2C |  | human patients | oral, 300 mg/m2, first dose, cycle 1, initial cohort, median | 1380 ng/mL |
| N#Cc1cc(NC(=O)[C@H]2c3ccccc3C(=O)N(CC(F)(F)F)[C@@H]2c2cccnc2)ccc1F |  | human, plasma | oral, 75 mg, median | 178 ng/mL |
| C=CC(=O)N1CCC[C@@H](n2c(=O)n(-c3ccc(Oc4ccccc4)cc3)c3c(N)nccc32)C1 |  | human, fasted, plasma | oral, 120 mg, geometric mean | 39.2 ng/mL |
| Cc1cc(-c2nnc(N)nc2-c2ccc(F)cc2)cc(Cl)n1 |  | human patients, plasma | oral, 75 mg nanosuspension once daily, multiple doses, arithmetic mean | 374 ng/mL |
| CC(C)NC(=O)COc1cccc(-c2nc(Nc3ccc4[nH]ncc4c3)c3ccccc3n2)c1 |  | human male, plasma | oral, 200 mg once daily, day 13, fed, geometric mean, with: rosuvastatin | 2510 ng/mL |
| Cn1cncc1[C@@](N)(c1ccc(Cl)cc1)c1ccc2c(c1)c(-c1cccc(Cl)c1)cc(=O)n2C |  | healthy human, plasma | oral, 50 mg | 104 ng/mL |
| COc1ccc2[nH]c([S@+]([O-])Cc3ncc(C)c(OC)c3C)nc2c1 |  | human, dried blood spots | oral, 10 mg omeprazole, with: voriconazole | 161 ng/mL |
| Cc1noc(C)c1-c1cc(C(O)(c2ccccn2)c2ccccn2)c2nc(C3CC3)[nH]c2c1 |  | human patients, plasma | oral, 1.4 mg, cycle 1 day 8, monotherapy | 117 ng/mL |
| CN(CC#N)C(=O)C[C@H](Nc1nc2ccccc2[nH]1)c1cccc(C(F)(F)F)c1 |  | human | intravenous infusion, 3 mg/kg, 1 mg/mL formulation | 7970 ± 735 ng/mL |
| CC(C)=CCC/C(C)=C/CC/C(C)=C/CC[C@@](C)(O)CCC1=C(C)C(=O)C(C)=C(C)C1=O |  | healthy human, plasma | oral, 400 mg, single dose, alone | 1330 ng/mL |
| Cc1ncnc2c1ccn2[C@@H]1C[C@H](Oc2cc(C(F)F)c(F)c3c2CNCC3)[C@@H](O)[C@H]1O |  | human | oral, 1 mg twice daily | 27.5 ng/mL and 12.2 ng/mL |

| SMILES | assay | system | setting | Cmax |
| --- | --- | --- | --- | --- |
| COC[C@@H](c1ccc(C(F)(F)F)cc1)N1CCN(C2(C)CCN(C(=O)c3c(C)ncnc3C)CC2)C[C@@H]1C |  | human | oral, 5 mg once daily, steady state, population PK, with: ritonavir | 33 ng/mL |
| N[C@@H]1c2cccnc2[C@H](OC(=O)N2CCC(n3c(=O)[nH]c4ncccc43)CC2)CC[C@H]1c1cccc(F)c1F |  | human, plasma | oral, dose not given, single dose, mean, with: rifampin | 349 ng/mL |
| COc1ccc([C@@H](O)c2cc(-c3ncnc4cc(N5CCOCC5)ccc34)c(F)cc2Cl)nn1 |  | human, plasma | oral, 300 mg twice daily, single dose, geometric mean | 1710 ng/mL |
| Cc1cc(OCCOCCC(F)(F)P(=O)(O)O)ccc1CCc1cnc2c(N)nc3cc(CCC(=O)O)ccc3c2c1 |  | human, serum | intratumoral, 600 µg every 2 weeks, cycle 1 day 1 | 2.77 ng/mL |
| COc1nnc2ccc(N3CCC(c4ccc(OCCN5CCN(C)C(=O)[C@H]5C)cc4)CC3)nn12 |  | human, plasma | oral, 10 mg once daily, single dose, monotherapy | 62.9 nM |
| O=C(c1cc(Cc2n[nH]c(=O)c3ccccc23)ccc1F)N1CCN(C(=O)C2CC2)CC1 | HPLC-MS/MS | human patients, plasma | oral, 25 mg twice daily, dose level -1, cycle 1 day 1, with: carboplatin target AUC 3 | 1270 ng/mL |
| O=C(/C=C/CN1CCCCC1)Nc1cc2c(Nc3ccc(F)c(Cl)c3)ncnc2cc1O |  | human, plasma | oral, 30 mg | 9.94 ng/mL |
| C[C@@H]1[C@H](c2ccccc2)C[C@H](NC(=O)c2cnc3c(c2)C[C@@]2(C3)C(=O)Nc3ncccc32)C(=O)N1CC(F)(F)F |  | human, plasma | 100 mg, scaled from 50 mg assuming linear PK | 400 to 1400 nM |
| CNC(=O)c1cc(Cl)c(OC(C)(C)C(=O)O)cc1OC[C@@H](O)CN1CCC2(CC1)Cc1cc(Cl)ccc1O2 |  | healthy human, plasma | inhaled, dose not given | 8.7 nM |
| C[C@@H](Oc1ccc(S(C)(=O)=O)cc1C(=O)N1C[C@@H]2C[C@]2(c2cc(C(F)(F)F)on2)C1)C(F)(F)F |  | healthy human volunteers, fed high-fat meal, plasma | oral, 10 mg single, adjusted geometric mean | 142 nM |
| CO[C@H]1C[C@@H]2CC[C@@H](C)[C@@](O)(O2)C(=O)C(=O)N2CCCC[C@H]2C(=O)O[C@H]([C@H](C)C[C@@H]2CC[C@@H](OCCO)[C@H](OC)C2)CC(=O)[C@H](C)/C=C(\C)[C@@H](O)[C@@H](OC)C(=O)[C@H](C)C[C@H](C)/C=C/C=C/C=C/1C |  | human, plasma | oral, 5 mg, cycle 1 day 1, single dosing, with: vorolanib 150 mg | 52.6 ± 12.1 ng/mL |
| COc1cc(Nc2c(C#N)cnc3cc(OCCCN4CCN(C)CC4)c(OC)cc23)c(Cl)cc1Cl |  | human, mild hepatic impairment (NCI), plasma | single dose, geometric mean, total drug | 66.8 ng/mL |
| C[C@H](CCC(=O)NCCS(=O)(=O)O)[C@H]1CC[C@H]2[C@@H]3[C@H](O)C[C@@H]4C[C@H](O)CC[C@]4(C)[C@H]3C[C@H](O)[C@]12C |  | human, plasma | concentration not given, endogenous baseline diurnal | 33.4 ± 3.6 nM |
| C[C@H](Oc1ccc(Br)cc1-c1ccon1)C(=O)O | LC-MS/MS, non-compartmental | human, plasma | 600 mg once daily, day 10, multiple ascending dose, mean | 26200 ng/mL |
| CO[C@@H]1[C@H](OC(=O)N2CC(CCN3CCOCC3)C2)CC[C@]2(CO2)[C@H]1[C@@]1(C)O[C@@H]1CC=C(C)C |  | humans, plasma | subcutaneous, 0.6 mg twice weekly, fifth dose | 3.61 ± 1.73 ng/mL |
| C[C@H](CCC(=O)O)[C@H]1CC[C@H]2[C@@H]3[C@H](O)C[C@@H]4C[C@H](O)CC[C@]4(C)[C@H]3C[C@H](O)[C@]12C |  | human, plasma | concentration not given, endogenous control diurnal | 94.2 ± 39.9 nM |
| NC(CO)(CO)CCc1ccc(Sc2cccc(OCc3ccccc3)c2)cc1Cl |  | human, fed, whole blood | oral, 3 mg, geometric mean, with: itraconazole 200 mg once daily | 1.22 ng/mL |
| C=CC(=O)N1CCC(Oc2cc3c(Nc4ccc(Cl)c(Cl)c4F)ncnc3cc2OC)CC1 |  | human, fasted, plasma | oral, 16 mg, geometric mean | 82.2 ng/mL |
| Cc1nc(-c2ccc(OCC(C)C)c(C#N)c2)sc1C(=O)O |  | human, plasma | oral, 10 mg once daily, with: verinurad 2.5 mg | 274 ng/mL |
| Cc1ccc(C(=O)N(CCCN)C(c2nc3snc(C)c3c(=O)n2Cc2ccccc2)C(C)C)cc1 (stereo not drawn) |  | human | intravenous, all doses pooled, course day 3 following induction, geometric mean | 71.2 ng/mL |
| CCCOc1ccc([C@H]2CNC(=O)N2c2ccc3[nH]cnc3c2)cc1 |  | human elderly fasted, CSF | oral, 500 mg twice daily tablet, day 11, geometric mean | 66.1 ng/mL |
| Cc1cc(Nc2cc3ncccc3c(N[C@@H]3C[C@H]4CC[C@@H](C3)N4CCC#N)n2)n[nH]1 |  | human, plasma | 270 mg, day 14, geometric mean | 12.1 ng/mL |
| C[C@H](CCC(=O)NCC(=O)O)[C@H]1CC[C@H]2[C@@H]3CC[C@@H]4C[C@H](OS(=O)(=O)O)CC[C@]4(C)[C@H]3C[C@H](O)[C@]12C |  | human, plasma | concentration not given, endogenous baseline diurnal | 458 ± 139 nM |
| COc1ccc(F)cc1C(=O)NCc1ccc(-c2nn([C@@H](C)C(F)(F)F)c(N)c2C(N)=O)cc1 |  | human, plasma | oral, 200 mg single dose, alone arm, rifampin interaction study | 4480 ng/mL |
